Results pooled from the literature.
Compare with care: the assays were run in different laboratories.
Organism: Plasmodium falciparum

CC(C)(C)OC(=O)N1CCN(c2ccc(Nc3ccnc4cc(Cl)ccc34)cc2)CC1
IC50 (parasite growth, SYBR Green; DD2; 72 h, drug-resistant strain, blood stage): 0.217 µM

O=C1Nc2ccccc2C(=O)CCc2cc(F)ccc21
IC50 (parasite growth; NF54 chloroquine-sensitive): 0.007 µM

FC(F)(F)Oc1ccc(-c2cnc3cc(Cl)ccc3c2Nc2ccc(C3CN(Cc4ccccc4)CCO3)cc2)cc1 (centres unmarked)
IC50 (parasite growth, SYBR Green; D6; 72 h, blood stage): ≥ 0.25 µM

CCOC(=O)C(Cc1c[nH]c2ccc([N+](=O)[O-])cc12)C(=O)OCC
IC50 (parasite growth, parasite lactate dehydrogenase; NF54 (chloroquine-sensitive)): 54 µM

Clc1ccc2c(Nc3ccc(N4CCNCC4)cc3)ccnc2c1
IC50 (parasite growth, SYBR Green; D6; 72 h, blood stage): 0.051 µM

CCOC(=O)/C(C#N)=C/NCCc1c[nH]c2ccccc12
IC50 (parasite growth, [3H]hypoxanthine incorporation; NF54 (chloroquine-sensitive)): > 35.3 µM

Cc1cccc(C(=O)NOCCCCCC(=O)NO)c1
IC50 (parasite growth; HN12, NF54; 72 h, gametocyte): ≤ 1 µM

C[C@H]1[C@@H](Oc2cccc(N[C@@H]3[C@H](C)O[C@@H]4O[C@@]5(C)CC[C@H]6[C@H](C)CC[C@@H]3[C@@]46OO5)c2)O[C@@H]2O[C@@]3(C)CC[C@H]4[C@H](C)CC[C@@H]1[C@@]24OO3
IC50 (parasite growth; W2; 72 h, drug-resistant strain, blood stage): < 0.01 µM

CC1(c2ccc(Cl)cc2)NC(C(=O)O)Cc2c1[nH]c1ccccc21 (centres unmarked)
IC50 (parasite growth; Dd2): > 10 µM

CCOC(=O)OC(C)Oc1c(-c2ccc(Oc3ccc(OC(F)(F)F)cc3)cc2)c(C)nc2cc(OC)c(Cl)cc12 (centres unmarked)
IC50 (parasite growth, SYBR Green I; D6, drug-sensitive; 72 h): 0.33 µM

CCN(CC)CCCC(C)Nc1ccnc2cc(Cl)ccc12 (centres unmarked)
IC50 (parasite growth; D6): < 0.026 mg/L

COc1ccc(C(=O)/C=C/c2ccc(O)c(CN3CCN(c4ccnc5cc(Cl)ccc45)CC3)c2)c(OC)c1
IC50 (parasite growth; DD2; drug-resistant strain, blood stage): 0.3 to 0.6 µM

Clc1ccc2c(Nc3ccc(N4CCOCC4)cc3)ccnc2c1
IC50 (parasite growth, SYBR Green; D6; 72 h, blood stage): ≥ 0.25 µM

COc1cc(C)c(-c2ccc(O)c3c2C[C@@H](C)N[C@@H]3C)c2cccc(O)c12 (single isomer, unassigned)
IC50 (parasite growth, SYBR Green; NF54; 96 h, blood stage): 0.038 µM

CCCOC(=O)C1=C(C)NC2=C(C(=O)CC(c3ccc(OC)c(OC)c3)C2)C1c1ccccc1F (centres unmarked)
IC50 (female gamete formation, refers to: Pfs25; stage V gametocytes; 24 h, compound washed out before gametes): > 20 µM

Oc1cccc(C(Nc2nccs2)c2ccc3cccnc3c2O)c1 (centres unmarked)
IC50 (ring stage growth; INDO; 12 h, early to late ring): > 8 µM

Clc1ccc2c(Nc3ccc(N4CCN(C5CC5)CC4)cc3)ccnc2c1
IC50 (parasite growth, SYBR Green; DD2; 72 h, drug-resistant strain, blood stage): 0.068 µM

C/C(=C/C(=O)C[C@]1(C)CCc2cc(O)cc(C)c2O1)CC/C=C(\C)CO
IC50 (parasite growth, SYBR Green; DD2; 72 h, drug-resistant strain, blood stage): > 112 µM

CCN1CCN(c2ccc(Nc3ccnc4cc(C(F)(F)F)ccc34)cc2)CC1
IC50 (parasite growth, SYBR Green; DD2; 72 h, drug-resistant strain, blood stage): 0.029 µM

CC(C)(C)c1ccc(O)c(CNC2CCCCC2)c1
IC50 (female gamete formation, refers to: Pfs25; stage V gametocytes; 24 h, compound carried over): > 20 µM

For quick reference, copied from above:
CCOC(=O)/C(C#N)=C/NCCc1c[nH]c2ccccc12
IC50 (parasite growth, [3H]hypoxanthine incorporation; NF54 (chloroquine-sensitive)): > 35.3 µM
